Measured values from different studies.
Numbered parts are unrelated; each lists some results of a single study.

Block 1
Target: Hepatocyte nuclear factor 3-alpha (Foxa1, Mus musculus, UniProt P35582, residues 1-468, full length assumed)
Technique: EMSA with sequencing
Molecule type: double-stranded DNA, one strand shown
Sample: in vitro
Concentration: 10 and 20 nM
Notes: whole designed probe, mean of two concentrations, ends assumed
Reference: negative control set to 0
Direction: higher = stronger binding
Target sequence (chain): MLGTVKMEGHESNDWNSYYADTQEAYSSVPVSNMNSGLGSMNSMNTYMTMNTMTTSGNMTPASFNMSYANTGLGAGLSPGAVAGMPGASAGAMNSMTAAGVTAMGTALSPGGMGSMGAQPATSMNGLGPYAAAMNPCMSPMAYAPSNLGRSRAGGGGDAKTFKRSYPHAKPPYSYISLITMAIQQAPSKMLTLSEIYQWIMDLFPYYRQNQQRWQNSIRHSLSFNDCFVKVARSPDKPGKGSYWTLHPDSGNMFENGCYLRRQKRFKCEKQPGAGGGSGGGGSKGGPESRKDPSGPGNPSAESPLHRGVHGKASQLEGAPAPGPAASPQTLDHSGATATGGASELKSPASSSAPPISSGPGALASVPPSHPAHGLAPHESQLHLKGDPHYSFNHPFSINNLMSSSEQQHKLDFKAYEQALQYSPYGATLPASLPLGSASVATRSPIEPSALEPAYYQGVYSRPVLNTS
| Oligonucleotide | normalised bound fraction |
| --- | --- |
| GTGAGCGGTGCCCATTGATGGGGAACACTACCATAGTTCCTATATACATATATGCCTCTTTCCCAATGCAAGTATGATATACTTTTATTTTGTTATTTGGTTTTCTATCTTTGATTTACAAGATTACACTGACATTTTTTAAGACTCAAATTGCTTAAGGTACAAAAAAATGTATTATTTACTGCAATCTCAACTATTAAAGCTAAAGCATTTCGAAAGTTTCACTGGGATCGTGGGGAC | 0.0867 ratio |
| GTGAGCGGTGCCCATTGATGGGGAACCCGTTAGCCATTTCTACAGTAAATGGTATCTGAAATTTTGTTATTTGAAAGAATTTTCTTGCCAAAACATGGAAATACGCAATATTTTGGCAAAATGACTTTGTATACGGGAACTTATTTTTTTAATTTTTTTATTTTTTTTGAGGCAGAGTCTCACTCTGTTGCCCAGGCTGGAGTGCAGTGGCACAGTGTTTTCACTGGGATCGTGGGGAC | 0.0538 ratio |
| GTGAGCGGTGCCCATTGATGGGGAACAATATTTCAAACACTACGTACCCCAACTGACATTTGAGTAGCAGTTAAGTTCTTGGAACGCTGCCATTTTGATCTGATACGTATCAGCTCATTGTAAACAGGATGAAATAGGGCAGTTAAAAGACTAATGGTCAGTGAAATCTACAACAGGAATGGAAAGAATTTTCCCCTTAAAAATTTGGAAATCCTTATTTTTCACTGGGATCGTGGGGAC | 0.0168 ratio |
| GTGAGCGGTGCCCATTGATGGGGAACTGTGAGCTTGTTTGTTCACTGAAAGCACTCATCATAAGCCTCATCAATATAAAAACTCTTGGTAGGACCAAGGGCAAACTAAGCTGAAGATCAAGATTGCATAGTTCACCTGCAACTTACCAACGTAGTTCAGAATAGAGTATGTCAAACCACCTTATAAAAACTGGGGCATCTGAAGGCATAAAAGTGTTCATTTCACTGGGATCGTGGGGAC | 0.225 ratio |
| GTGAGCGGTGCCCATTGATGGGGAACTACACACGTATAAAAATGCTGCATGGGTGAGTGTGACATAGGCAAGCTCTTTAACAGGTGAAGCATCAGAGACTCCTGCTAACCTGGGAGAAAGCAATCTGCCACAGGGAGAGAACAGGGCCACGTGGAAGGGACCTGAGGACGACCTCTAGGAGTTGAGTGGGGTTTCCTGCTGACAGCTAGCAGGAAAATATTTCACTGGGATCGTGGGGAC | -0.0374 ratio |
| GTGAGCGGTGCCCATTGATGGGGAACTGTGAGCCACTGCACCCAGCCAAGTGGTTTGTTTATATTCAAGAGTGAGGCACTAAAATGCTAATTGGAAGCTTTGTGTACATGGGTTGGGCTTATTGACTTATATGACTCCTCACAGTGAAACAGGTCAATGGTCAATGGTCTCATTGTCTGAAGTGTTATCTGAGTTCATTGTCTCATGACCAAGAAAATTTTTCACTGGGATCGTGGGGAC | 0.321 ratio |
| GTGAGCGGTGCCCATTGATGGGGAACATCTTCCCCCTCTTCCTTGCCCCACCAGCTCACCTACGGGGGTTATTTGCACAAAGGAAAATAAATAAAGCCGGCATTCGTTAACCCTCTTCTGGCGCAAACTGCTGTTTGCTCTGCATGAATCATGGTCCTTACGCGACGCCAGGCTCCGGGAGAGCAAAGCACCGTGTCAGGCGCATGATCCGGGCTCGCCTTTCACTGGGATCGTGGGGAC | 0.38 ratio |
| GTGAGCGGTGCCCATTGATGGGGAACTCTTTCACTCAAGTGGTATATCCCACAGCCCTAAAGAAGCAAGGGAAATAAGAATTAGAACTAGACATCCCAGGAGACAAAGAATTCAACAAAGCAAACATTAACCAACACTTCCTGCTCCCTTCACTATTTACAGAAAATCTCTCTGGCTCAGGCCGGGCAGTGAGTTCATTTATTTCAACAAAATCAAAGATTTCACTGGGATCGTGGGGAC | 0.286 ratio |

Block 2
Target: Centromere-binding protein 1, full length, His-tagged (CBF1, Saccharomyces cerevisiae, UniProt P17106, residues 1-351)
Chain of UniProt P17106 (whole entry, looked up): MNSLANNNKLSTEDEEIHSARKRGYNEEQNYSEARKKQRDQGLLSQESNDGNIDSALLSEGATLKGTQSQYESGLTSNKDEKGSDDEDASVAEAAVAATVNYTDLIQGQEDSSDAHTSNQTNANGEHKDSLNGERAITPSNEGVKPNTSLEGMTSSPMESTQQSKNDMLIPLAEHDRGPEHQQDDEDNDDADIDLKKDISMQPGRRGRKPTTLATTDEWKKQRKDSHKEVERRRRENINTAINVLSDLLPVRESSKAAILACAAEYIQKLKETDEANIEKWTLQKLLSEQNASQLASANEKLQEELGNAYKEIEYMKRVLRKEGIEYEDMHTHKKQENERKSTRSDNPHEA
Technique: competition protein-binding microarray
Molecule type: double-stranded DNA, one strand shown
Sample: in vitro
Concentration: 2 µM
Notes: whole 60-bp probe, lowest competitor level
With: Pho4 competitor, 0.05 µM
Direction: higher = stronger binding
| Oligonucleotide | fluorescence intensity [a.u.] |
| --- | --- |
| CAGAACTAGATGGCGCTCGTGATTGTGAAAACGGGGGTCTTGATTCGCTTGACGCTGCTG | 318 |
| GTCTTGTCTCATTGATGGGTGGGTGTCCCCACTTCAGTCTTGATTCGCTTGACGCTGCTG | 96.7 |
| GCAGTGCCATCCCGTCACATGACAACACCACTTTAAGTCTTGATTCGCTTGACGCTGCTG | 1380 |
| CGTCCTAGTGATTGGTTCGTGGGTGCCATGAGGAAGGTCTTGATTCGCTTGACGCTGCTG | 75.4 |
| CTAACGAAGGTTTGGTGGGTGGGTGACAAGCCAAGTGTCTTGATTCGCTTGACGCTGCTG | 65.6 |
| GTATGCACCATCTTTCATGTGGGAAATAAGCTTTTTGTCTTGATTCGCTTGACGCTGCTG | 84.1 |
| TATTGTGTCGCCTCGACCGTGATGGTTAGTTCCTATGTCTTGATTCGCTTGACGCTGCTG | 80.9 |
| TCAAAACCAAGAATTGATGTGCAGGAAAATGAAGATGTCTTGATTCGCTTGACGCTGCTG | 77.2 |
| ATGCTACTAGTAACACACATGTACAGCCTGTTGCAAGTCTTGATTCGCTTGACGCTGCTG | 93.9 |
| CATACCCAACCTTACCACGTGTTTTAAGATATTTGTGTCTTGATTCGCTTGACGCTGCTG | 1640 |
| CGCCTTGTGCTACTGGACGTGTGTTTGGTTTTATGTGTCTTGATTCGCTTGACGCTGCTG | 66.2 |
| TCAGATGCGCTGATGGGCGTGCTTTACACCCATCAGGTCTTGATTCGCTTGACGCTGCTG | 64.1 |
| ACCCCGGAACACTGGCACGTATTTCATAAAAAGGACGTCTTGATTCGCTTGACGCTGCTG | 89.4 |
| ACCTTCTTTGGCGTTGTTGTGACGGAGACTTCCTGTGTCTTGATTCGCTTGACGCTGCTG | 65.2 |
| CCAGCAGGAAATAGCCCCGTGCTTTTCCATCCTGACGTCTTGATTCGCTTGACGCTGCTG | 143 |
| AAAGCGGTAATTTGTCACCAAACTTCACATATCTATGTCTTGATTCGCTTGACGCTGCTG | 85.3 |
| TTGGTAGAGGCGGTTCCCGTGGTGATGCTCGCGGTGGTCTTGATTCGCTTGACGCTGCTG | 77.1 |
| GTACTTGATTTAACCTGCGTGCTTTAAGTCGGTAAAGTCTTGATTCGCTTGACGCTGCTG | 101 |
| CTTCTGTAAATTTGGATCGTGGGTGGACGCGCCCCGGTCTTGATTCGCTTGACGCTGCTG | 83.9 |
| TGCGCAACAACTTGATCTGTGGGTGTATGTCTAGAAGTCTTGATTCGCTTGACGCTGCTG | 72.3 |
| ATCTTTCGGAATTGTGAGGTGCAGGGATGCGGACTTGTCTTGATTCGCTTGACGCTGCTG | 73 |
| ACCAAAAGACCAGAGCTCGTGATGGTCGGCTGCACCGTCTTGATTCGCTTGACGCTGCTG | 137 |

Block 3
Target: Histone acetyltransferase KAT6A, winged helix 2, GST fusion (KAT6A, Homo sapiens, UniProt Q92794, residues 85-181)
Technique: protein binding microarray
Molecule type: double-stranded DNA, one strand shown
Sample: in vitro
Concentration: not given
Notes: 8-mer, flanks averaged, mean of 2 arrays, mostly near background
Reference: not given
Direction: higher = stronger binding
Construct (chain): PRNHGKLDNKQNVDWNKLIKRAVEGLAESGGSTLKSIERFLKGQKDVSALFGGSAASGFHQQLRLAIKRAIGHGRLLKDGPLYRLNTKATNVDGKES
| Oligonucleotide | E-score |
| --- | --- |
| GAGGCGAA | 0.201 |
| TAGGTGCA | -0.122 |
| AGGACATG | -0.172 |
| ATAGTATA | -0.0851 |
| GATGTGTA | -0.2 |
| CCACATCC | -0.113 |
| AACCGATA | 0.0713 |
| GATATGTA | -0.0861 |
| TCTACAAA | -0.169 |
| ACTGTATG | -0.0949 |
| AACAGATT | -0.198 |
| AAGTTAGT | 0.0517 |
| GGCAGCTA | 0.181 |
| ATATACGA | -0.0434 |
| ATTTTAAA | 0.132 |
| CATCGAAG | -0.01 |
| CACGCTGG | 0.0841 |
| CATGACAA | -0.038 |
| CAACTGAC | -0.112 |
| CCGCAACA | 0.106 |
| AGGAGCGC | 0.0733 |
| CTGCCGTC | 0.189 |

Block 4
Target: Ras GTPase-activating protein-binding protein 1, RRM domain (G3BP1, Homo sapiens, UniProt Q13283)
Chain of UniProt Q13283 (whole entry, looked up): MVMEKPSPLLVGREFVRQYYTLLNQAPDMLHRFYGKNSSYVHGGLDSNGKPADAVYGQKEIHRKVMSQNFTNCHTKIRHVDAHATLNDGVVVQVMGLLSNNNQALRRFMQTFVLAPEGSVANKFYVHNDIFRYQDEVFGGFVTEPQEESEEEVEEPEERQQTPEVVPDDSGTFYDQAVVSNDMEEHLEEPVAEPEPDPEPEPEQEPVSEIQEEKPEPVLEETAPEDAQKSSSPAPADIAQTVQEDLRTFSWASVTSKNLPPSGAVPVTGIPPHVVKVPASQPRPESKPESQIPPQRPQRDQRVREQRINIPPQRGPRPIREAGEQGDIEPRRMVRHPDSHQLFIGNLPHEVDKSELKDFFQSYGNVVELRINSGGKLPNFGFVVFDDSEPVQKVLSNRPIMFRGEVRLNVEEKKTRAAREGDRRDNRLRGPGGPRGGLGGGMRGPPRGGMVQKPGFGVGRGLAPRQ
Technique: RNA Bind-n-Seq
Molecule type: RNA
Sample: in vitro
Concentration: 1 µM
Notes: whole 134-nt RNA, ends assumed
With: 150 mM KCl
Reference: input library
Direction: higher = stronger binding
| Oligonucleotide | log2 enrichment |
| --- | --- |
| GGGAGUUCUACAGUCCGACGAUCCAAGUCCUGUGCUACACAUCGUAUGUACCGAAUCAAAUUUAAACCCAAAUUUAAAAAAGUAUUAUGUUACGCCGUUCGGAUCUGCACUUCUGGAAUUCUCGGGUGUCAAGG | -0.129 |
| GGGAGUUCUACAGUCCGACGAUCCUGUGCUACACAUCGUAUGUACCGAAUCGGGGUUUUUUUGGUUUUUUUGGGGUUUUUUUGGAAAGUAUUAUGUUACGCCGUUCGGAUCUGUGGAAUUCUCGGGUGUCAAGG | -0.129 |
| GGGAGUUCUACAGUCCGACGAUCUAGCAUAUUGCCUUGUUCACUACCGAGGAGAUGAGAAGAUUAAAGGUUUCAUAUGGGAUCUCAUUACUCCAACUGAAGAUGGACAGACACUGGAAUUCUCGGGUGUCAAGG | 0.139 |
| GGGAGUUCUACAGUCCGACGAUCCCUGUGCUACACAUCGUAUGUACCGAAUCGGGGCCCCCCGGGCCCCCCGGGCCCCCCGGGAAAGUAUUAUGUUACGCCGUUCGGAUCUGCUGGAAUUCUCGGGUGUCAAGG | -0.68 |
| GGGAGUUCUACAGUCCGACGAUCCAAGUCCUGUGCUACACAUCGUAUGUACCGAAUCGGGGAAAGGGGAAAGGAAAGGGAAAGUAUUAUGUUACGCCGUUCGGAUCUGCACUUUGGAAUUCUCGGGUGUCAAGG | -0.291 |
| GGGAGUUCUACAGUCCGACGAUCUGUUUUAAGGUUGCCAACUUUGCAACAAUGGAAGAUGAAGAAGAGCUAGAAGAGCGUCCUCACAAGGACUGGGAUGAGAUCAUUCCAGAGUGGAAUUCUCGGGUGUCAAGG | -0.336 |
| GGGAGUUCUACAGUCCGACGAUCACCAUGCAGGUGGGCAUCUUUGGGAAGUGGGACAAGGGGGGGAUAGGGAGGGGGGUAACACUUUGGGAACAGGUGGUCCCAGGUCGUUUCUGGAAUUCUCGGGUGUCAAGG | -0.545 |
| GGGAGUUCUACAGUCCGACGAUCGUCCUGUGCUACACAUCGUAUGUACCGAAUCGGGGUUUGGGGAAAAAGGGGAAAGGGGAAAGUAUUAUGUUACGCCGUUCGGAUCUGCACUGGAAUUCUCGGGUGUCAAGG | 1.78 |
| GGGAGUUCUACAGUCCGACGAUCUUCCUCAAGUCCUGUGCUACACAUCGUAUGUACCGAAUCGGAGGAGGAGGGAAAGUAUUAUGUUACGCCGUUCGGAUCUGCACUUCCAGCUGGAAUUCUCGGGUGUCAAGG | -0.245 |
| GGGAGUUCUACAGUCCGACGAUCUUCAUUCCUUGGAAGAAGCUGUACCAUCGAUACCUGAUGAAUGAAGAGCAAGCUGUCAGCAAAGUGGACGGCAUCCUGUCUAACUGUGGCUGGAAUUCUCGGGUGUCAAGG | -0.128 |
